Measurements of several laboratories.
± marks the error that the study gave.
Organism: Escherichia coli

Cc1cc(O)cc2c1C(=O)c1c(cc3oc(=O)cc(C)c3c1O)C2=O — inhibition zone (microbial growth, disc diffusion; MTCC739; 100 µg/disc): 10 mm
S=c1n(CN2CCN(c3ccccn3)CC2)nc(C23CC4CC(CC(C4)C2)C3)n1-c1ccccc1 — inhibition zone (microbial growth, disc diffusion; IFO3301; 200 µg/disc, 24 h): 19 mm
NS(=O)(=O)c1ccc(-n2c(SCC(=O)Nc3ccc([N+](=O)[O-])cc3[N+](=O)[O-])nc3ccccc3c2=O)cc1 — inhibition zone (microbial growth, well diffusion; ATCC25922; 500 µg/mL, 24 h): 15 mm
COc1cc(OC)c2c(c1)C(=O)c1cc3oc(=O)cc(-c4ccc(Cl)cc4)c3c(O)c1C2=O — inhibition zone (microbial growth, disc diffusion; MTCC739; 100 µg/disc): 16 mm
S=c1n(CN2CCN(Cc3ccccc3)CC2)nc(C23CC4CC(CC(C4)C2)C3)n1-c1ccccc1 — inhibition zone (microbial growth, disc diffusion; IFO3301; 200 µg/disc, 24 h): 12 mm
O=C1c2ccccc2C(=O)c2c1ccc1c2C(C(=O)Nc2ccc(Cl)cc2)C(=O)C1c1ccccc1 (centres unmarked) — inhibition zone (microbial growth, disc diffusion; MTCC739; 100 µg/mL, 24 h): 8 mm
Cc1c2c(cc3oc(=O)cc(-c4ccc(O)cc4)c13)C(=O)c1cccc(O)c1C2=O — inhibition zone (microbial growth, disc diffusion; MTCC739; 100 µg/disc): 10 mm
CCOC(=O)c1sc(N/N=C/c2c(-c3ccc(C)cc3)nc3ncccn23)nc1C — inhibition zone (microbial growth, well diffusion; ATCC25922; 100 µg/mL): 18 mm
C=C(CO)C(=O)O[C@H]1CC(=C)[C@@H]2C[C@H](O)[C@](O)(CCl)[C@@H]2[C@H]2OC(=O)C(=C)C12 (some centres unmarked) — inhibition zone (concentration not given): 9 ± 1.3 mm
CCOC(=O)c1cnc(N/N=C/c2c(-c3ccc(F)cc3)nc3ncccn23)s1 — inhibition zone (microbial growth, well diffusion; ATCC25922; 100 µg/mL): 15 mm
Cc1c2c(cc3oc(=O)cc(-c4ccc(Cl)cc4)c13)C(=O)c1cccc(O)c1C2=O — inhibition zone (microbial growth, disc diffusion; MTCC739; 100 µg/disc): 8 mm
CCOC(=O)c1sc(N/N=C/c2c(-c3ccccc3)nc3ncccn23)nc1C — inhibition zone (microbial growth, well diffusion; ATCC25922; 100 µg/mL): 13 mm
COc1c2c(cc3oc(=O)cc(-c4ccc(Cl)cc4)c13)C(=O)c1cc(C)cc(O)c1C2=O — inhibition zone (microbial growth, disc diffusion; MTCC739; 100 µg/disc): 15 mm
COc1ccc(NC(=O)CSc2nc3ccccc3c(=O)n2-c2ccc(S(N)(=O)=O)cc2)cc1 — inhibition zone (microbial growth, well diffusion; ATCC25922; 500 µg/mL, 24 h): 13 mm
Cc1cc(O)c2c(c1)C(=O)c1cc3oc(=O)cc(-c4ccc(O)cc4)c3c(O)c1C2=O — inhibition zone (microbial growth, disc diffusion; MTCC739; 100 µg/disc): 10 mm
O=C(NC(=S)Nc1nc(-c2ccccc2)cc(-c2ccc(Cl)cc2)n1)c1ccc(Cl)cc1 — inhibition zone (concentration not given, 24 h, 37 °C): 6 mm
Cc1cc([N+](=O)[O-])ccc1NC(=O)CSc1nc2ccccc2c(=O)n1-c1ccc(S(N)(=O)=O)cc1 — inhibition zone (microbial growth, well diffusion; ATCC25922; 500 µg/mL, 24 h): 32 mm
Cc1cccc(NCC(=O)Nc2nc3ccccc3s2)c1 — inhibition zone (microbial growth, disc diffusion; 100 µg/mL, 24 h): 0 mm
FC(F)(F)c1cc(CSc2nnc(C34CC5CC(CC(C5)C3)C4)n2-c2ccccc2)cc(C(F)(F)F)c1 — inhibition zone (microbial growth, disc diffusion; IFO3301; 200 µg/disc, 24 h): 20 mm
CCOc1ccc(NC(=O)CSc2nc3ccccc3c(=O)n2-c2ccc(S(N)(=O)=O)cc2)cc1 — inhibition zone (microbial growth, well diffusion; ATCC25922; 500 µg/mL, 24 h): 12 mm
CCN(CC)CCn1nc(C23CC4CC(CC(C4)C2)C3)n(C)c1=S — inhibition zone (microbial growth, disc diffusion; IFO3301; 200 µg/disc, 24 h): 12 mm
O=C1c2ccccc2C(=O)c2c1ccc1c2C(C(=O)NCc2ccccc2)C(=O)C1c1ccccc1 (centres unmarked) — inhibition zone (microbial growth, disc diffusion; MTCC739; 100 µg/mL, 24 h): 8 mm
Cc1cccc([N+](=O)[O-])c1NC(=O)CSc1nc2ccccc2c(=O)n1-c1ccc(S(N)(=O)=O)cc1 — inhibition zone (microbial growth, well diffusion; ATCC25922; 500 µg/mL, 24 h): 16 mm

A few entries again:
COc1ccc(NC(=O)CSc2nc3ccccc3c(=O)n2-c2ccc(S(N)(=O)=O)cc2)cc1 — inhibition zone (microbial growth, well diffusion; ATCC25922; 500 µg/mL, 24 h): 13 mm
Cc1c2c(cc3oc(=O)cc(-c4ccc(Cl)cc4)c13)C(=O)c1cccc(O)c1C2=O — inhibition zone (microbial growth, disc diffusion; MTCC739; 100 µg/disc): 8 mm
O=C(NC(=S)Nc1nc(-c2ccccc2)cc(-c2ccc(Cl)cc2)n1)c1ccc(Cl)cc1 — inhibition zone (concentration not given, 24 h, 37 °C): 6 mm
